# Measurements of several laboratories.
# Parts stem from different laboratories: compare values within a part only. Positions count from the first letter of the parent shown.
# Chain of UniProt Q6ZN16 (whole entry, looked up): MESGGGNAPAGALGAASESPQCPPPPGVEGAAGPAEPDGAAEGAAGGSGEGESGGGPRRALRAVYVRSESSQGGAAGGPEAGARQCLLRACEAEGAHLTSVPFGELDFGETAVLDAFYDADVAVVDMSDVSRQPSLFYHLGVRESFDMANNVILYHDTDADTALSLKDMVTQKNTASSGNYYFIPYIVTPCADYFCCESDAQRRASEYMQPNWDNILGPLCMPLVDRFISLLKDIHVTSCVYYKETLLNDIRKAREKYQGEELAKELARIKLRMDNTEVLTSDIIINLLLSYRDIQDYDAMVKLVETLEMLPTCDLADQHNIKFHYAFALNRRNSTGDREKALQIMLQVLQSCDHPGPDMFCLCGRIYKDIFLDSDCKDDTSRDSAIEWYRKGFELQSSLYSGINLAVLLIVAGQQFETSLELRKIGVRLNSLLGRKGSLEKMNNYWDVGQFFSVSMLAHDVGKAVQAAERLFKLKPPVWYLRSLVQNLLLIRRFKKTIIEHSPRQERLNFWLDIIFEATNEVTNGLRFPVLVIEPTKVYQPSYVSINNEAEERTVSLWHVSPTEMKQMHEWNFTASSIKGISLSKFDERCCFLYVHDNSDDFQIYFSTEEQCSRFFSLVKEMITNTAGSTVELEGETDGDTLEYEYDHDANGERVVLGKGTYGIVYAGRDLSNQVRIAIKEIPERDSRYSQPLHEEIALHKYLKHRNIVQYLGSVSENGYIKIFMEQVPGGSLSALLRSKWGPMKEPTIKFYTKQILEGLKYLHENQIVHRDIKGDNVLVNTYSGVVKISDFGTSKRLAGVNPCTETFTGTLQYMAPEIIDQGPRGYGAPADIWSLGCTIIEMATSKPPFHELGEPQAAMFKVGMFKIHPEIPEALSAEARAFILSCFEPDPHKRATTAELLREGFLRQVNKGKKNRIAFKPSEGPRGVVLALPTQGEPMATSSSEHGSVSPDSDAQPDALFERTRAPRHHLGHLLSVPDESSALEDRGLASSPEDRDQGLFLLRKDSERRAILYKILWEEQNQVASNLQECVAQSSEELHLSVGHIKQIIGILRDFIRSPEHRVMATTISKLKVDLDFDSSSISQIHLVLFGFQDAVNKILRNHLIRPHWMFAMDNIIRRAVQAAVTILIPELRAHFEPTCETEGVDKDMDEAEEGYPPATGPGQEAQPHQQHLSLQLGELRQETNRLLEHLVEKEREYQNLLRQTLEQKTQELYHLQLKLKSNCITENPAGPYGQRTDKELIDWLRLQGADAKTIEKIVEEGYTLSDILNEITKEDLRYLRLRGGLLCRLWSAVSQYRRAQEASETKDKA
# Chain of UniProt P29317 (whole entry, looked up): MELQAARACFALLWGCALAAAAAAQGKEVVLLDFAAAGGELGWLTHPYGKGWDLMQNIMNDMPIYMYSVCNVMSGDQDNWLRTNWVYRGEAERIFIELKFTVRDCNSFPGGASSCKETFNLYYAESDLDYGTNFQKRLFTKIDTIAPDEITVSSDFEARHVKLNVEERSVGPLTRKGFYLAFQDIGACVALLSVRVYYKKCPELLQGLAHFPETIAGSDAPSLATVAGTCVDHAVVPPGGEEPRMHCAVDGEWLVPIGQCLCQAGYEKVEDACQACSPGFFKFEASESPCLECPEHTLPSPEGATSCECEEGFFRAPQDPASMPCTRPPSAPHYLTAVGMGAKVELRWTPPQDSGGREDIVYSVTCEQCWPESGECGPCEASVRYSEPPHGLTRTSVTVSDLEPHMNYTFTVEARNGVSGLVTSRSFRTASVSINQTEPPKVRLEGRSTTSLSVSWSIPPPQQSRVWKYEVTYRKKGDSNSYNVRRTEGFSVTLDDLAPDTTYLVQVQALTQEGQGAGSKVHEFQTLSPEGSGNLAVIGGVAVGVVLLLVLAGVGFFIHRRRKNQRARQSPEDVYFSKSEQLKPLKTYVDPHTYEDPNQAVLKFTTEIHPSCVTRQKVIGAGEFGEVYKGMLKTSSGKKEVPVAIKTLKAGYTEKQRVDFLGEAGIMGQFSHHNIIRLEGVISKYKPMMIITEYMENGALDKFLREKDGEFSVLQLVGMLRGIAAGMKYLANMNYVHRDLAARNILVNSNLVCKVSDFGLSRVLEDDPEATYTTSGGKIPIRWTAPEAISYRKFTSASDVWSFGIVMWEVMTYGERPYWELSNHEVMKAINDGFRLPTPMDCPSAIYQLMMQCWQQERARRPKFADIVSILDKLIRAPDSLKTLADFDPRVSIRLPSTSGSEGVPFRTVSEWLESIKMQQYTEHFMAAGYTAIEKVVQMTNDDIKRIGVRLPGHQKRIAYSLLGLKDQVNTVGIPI
# Chain of UniProt O00238 (whole entry, looked up): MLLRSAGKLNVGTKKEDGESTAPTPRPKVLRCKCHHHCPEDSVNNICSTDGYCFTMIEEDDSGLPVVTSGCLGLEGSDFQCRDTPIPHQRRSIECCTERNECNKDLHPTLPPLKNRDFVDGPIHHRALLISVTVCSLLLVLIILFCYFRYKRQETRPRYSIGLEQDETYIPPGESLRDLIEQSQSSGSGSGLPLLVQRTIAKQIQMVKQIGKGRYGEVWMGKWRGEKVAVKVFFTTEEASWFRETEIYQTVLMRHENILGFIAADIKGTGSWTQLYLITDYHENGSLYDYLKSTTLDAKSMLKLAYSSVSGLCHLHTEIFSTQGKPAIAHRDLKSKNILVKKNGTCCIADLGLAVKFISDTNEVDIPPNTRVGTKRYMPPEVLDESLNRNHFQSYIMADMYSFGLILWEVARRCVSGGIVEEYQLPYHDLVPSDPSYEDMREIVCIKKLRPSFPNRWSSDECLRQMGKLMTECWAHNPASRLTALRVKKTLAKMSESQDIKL
# Chain of UniProt P53671 (whole entry, looked up): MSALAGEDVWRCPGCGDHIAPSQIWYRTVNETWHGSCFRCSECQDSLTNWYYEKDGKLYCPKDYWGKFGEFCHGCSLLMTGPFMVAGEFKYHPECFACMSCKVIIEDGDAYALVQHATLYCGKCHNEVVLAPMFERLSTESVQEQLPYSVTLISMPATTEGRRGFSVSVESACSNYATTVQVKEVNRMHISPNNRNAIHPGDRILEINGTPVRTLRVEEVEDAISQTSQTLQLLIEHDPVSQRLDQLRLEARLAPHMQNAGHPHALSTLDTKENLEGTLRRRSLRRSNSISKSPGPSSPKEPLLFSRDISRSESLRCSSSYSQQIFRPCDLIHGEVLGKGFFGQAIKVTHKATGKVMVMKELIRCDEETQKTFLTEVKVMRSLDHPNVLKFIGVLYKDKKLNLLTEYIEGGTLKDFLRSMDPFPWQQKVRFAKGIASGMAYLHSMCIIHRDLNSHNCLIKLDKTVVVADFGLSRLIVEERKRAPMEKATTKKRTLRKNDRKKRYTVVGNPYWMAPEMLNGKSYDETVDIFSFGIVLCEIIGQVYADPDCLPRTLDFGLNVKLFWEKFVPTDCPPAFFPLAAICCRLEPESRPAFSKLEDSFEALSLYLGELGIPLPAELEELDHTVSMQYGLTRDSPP
# Chain of UniProt P29597 (whole entry, looked up): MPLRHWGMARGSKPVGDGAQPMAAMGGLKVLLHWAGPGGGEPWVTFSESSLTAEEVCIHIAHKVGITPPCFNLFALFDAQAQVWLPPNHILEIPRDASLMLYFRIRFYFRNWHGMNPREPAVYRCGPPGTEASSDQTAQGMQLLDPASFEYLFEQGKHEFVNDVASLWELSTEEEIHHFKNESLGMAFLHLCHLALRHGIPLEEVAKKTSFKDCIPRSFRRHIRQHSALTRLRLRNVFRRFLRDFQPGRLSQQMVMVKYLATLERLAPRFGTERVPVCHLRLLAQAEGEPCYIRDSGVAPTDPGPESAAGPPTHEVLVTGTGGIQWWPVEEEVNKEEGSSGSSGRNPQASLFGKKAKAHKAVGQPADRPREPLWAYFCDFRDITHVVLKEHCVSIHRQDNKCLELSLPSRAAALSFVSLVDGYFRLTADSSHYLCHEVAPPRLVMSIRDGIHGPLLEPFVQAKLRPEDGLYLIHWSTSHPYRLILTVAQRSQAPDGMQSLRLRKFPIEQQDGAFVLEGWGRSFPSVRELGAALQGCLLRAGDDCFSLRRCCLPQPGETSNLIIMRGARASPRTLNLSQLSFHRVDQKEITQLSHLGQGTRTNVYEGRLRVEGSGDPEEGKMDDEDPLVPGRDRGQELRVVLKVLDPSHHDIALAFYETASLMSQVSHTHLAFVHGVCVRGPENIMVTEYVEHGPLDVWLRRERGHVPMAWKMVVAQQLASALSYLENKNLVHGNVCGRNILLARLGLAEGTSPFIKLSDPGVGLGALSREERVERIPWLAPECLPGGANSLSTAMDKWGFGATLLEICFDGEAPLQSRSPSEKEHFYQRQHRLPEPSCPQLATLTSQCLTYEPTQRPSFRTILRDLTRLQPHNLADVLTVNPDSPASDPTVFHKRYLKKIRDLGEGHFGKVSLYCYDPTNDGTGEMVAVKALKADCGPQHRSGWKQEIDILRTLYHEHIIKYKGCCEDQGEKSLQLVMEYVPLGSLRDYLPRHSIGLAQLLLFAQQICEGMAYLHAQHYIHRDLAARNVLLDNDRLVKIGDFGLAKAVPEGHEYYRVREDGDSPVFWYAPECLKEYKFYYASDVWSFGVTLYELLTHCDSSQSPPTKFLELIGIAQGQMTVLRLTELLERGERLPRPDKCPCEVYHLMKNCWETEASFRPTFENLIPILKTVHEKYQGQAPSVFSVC
# Chain of UniProt P19784 (whole entry, looked up): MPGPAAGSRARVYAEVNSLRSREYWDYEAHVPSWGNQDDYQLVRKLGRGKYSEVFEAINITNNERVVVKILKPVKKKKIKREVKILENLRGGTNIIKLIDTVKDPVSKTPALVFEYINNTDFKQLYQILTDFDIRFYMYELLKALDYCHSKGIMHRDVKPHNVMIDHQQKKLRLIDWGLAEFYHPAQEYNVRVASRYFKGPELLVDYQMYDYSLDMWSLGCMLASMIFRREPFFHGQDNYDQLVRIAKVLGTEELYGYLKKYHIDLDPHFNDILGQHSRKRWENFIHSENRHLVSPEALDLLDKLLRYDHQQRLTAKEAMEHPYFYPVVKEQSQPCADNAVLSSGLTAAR

# Study 1 — target: CRIPT, C-terminal peptide; method: DHFR complementation, deep sequencing; sample: yeast; baseline: wild type; direction: higher = weaker binding
# Setting: single substitutions, model-inferred values
# Starting sequence: ERBIN, PDZ domain 1 (human); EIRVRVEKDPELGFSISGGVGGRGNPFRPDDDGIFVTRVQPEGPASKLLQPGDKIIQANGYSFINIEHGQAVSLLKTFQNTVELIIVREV; partner TKNYKQTSV
Change,binding free energy change [kcal/mol]
N80W,0.23
I16C,1.18
L48P,0.644
V4C,0.19
A45R,0.85
G69C,0.0578
P41H,0.346
L74R,0.093

# Study 2 — method: aptamer microarray, sandwich; molecule type: DNA with 2'F-ANA; sample: in vitro; concentration: 200 nM; together with: Cy3 exosite-II aptamer, 400 nM; direction: higher = stronger binding; sequence: GGTTGGTGTGGTTGG
# Target: Prothrombin, mature alpha-thrombin (F2, Homo sapiens, UniProt P00734)
# Setting: whole 15-mer aptamer, many near background
Modification,mean fluorescence intensity [a.u.]
2'F-ANA at 3 4 6 7 8 10 11 12,302
2'F-ANA at 3 4 5 10 12 13 14 15,58.3
2'F-ANA at 2 3 10 13,468
2'F-ANA at 1 2 4 5 6 7 11 14 15,49.4
2'F-ANA at 1 5 7 15,56.9
2'F-ANA at 1 2 6 8 10 12 13 14 15,51.4
2'F-ANA at 1 2 3 7 8 9 11 14,76.9
2'F-ANA at 1 3 4 5 9 10,46.1

# Study 3 — observed: cell-free assay; method: competition with immobilised ligand; concentration: 1 µM
# Structure (SMILES): CN(c1ccnc(CNc2nc(Nc3ccc4c(c3)CC(=O)N4)ncc2C(F)(F)F)n1)S(C)(=O)=O
target,remaining binding [%]
"Non-receptor tyrosine-protein kinase TYK2, JH1 (TYK2, Homo sapiens, UniProt P29597)",27
"LIM domain kinase 2 (LIMK2, Homo sapiens, UniProt P53671)",94
"SRSF protein kinase 1 (SRPK1, Homo sapiens, UniProt Q96SB4)",17
"Dual specificity mitogen-activated protein kinase kinase 1 (MAP2K1, Homo sapiens, UniProt Q02750)",85
"MAP/microtubule affinity-regulating kinase 4 (MARK4, Homo sapiens, UniProt Q96L34)",63
"Mitogen-activated protein kinase kinase kinase 4 (MAP3K4, Homo sapiens, UniProt Q9Y6R4)",91
"Serine/threonine-protein kinase TAO3 (TAOK3, Homo sapiens, UniProt Q9H2K8)",12
"Mitogen-activated protein kinase kinase kinase 15 (MAP3K15, Homo sapiens, UniProt Q6ZN16)",92
"Casein kinase II subunit alpha' (CSNK2A2, Homo sapiens, UniProt P19784)",6.7
"Epidermal growth factor receptor (EGFR, Homo sapiens, UniProt P00533, del746-750)",44
"Bone morphogenetic protein receptor type-1B (BMPR1B, Homo sapiens, UniProt O00238)",3.6
"Ribosomal protein S6 kinase alpha-6, C-terminal kinase domain (RPS6KA6, Homo sapiens, UniProt Q9UK32)",79

# Study 4 — observed: enzyme activity; action: inhibitor; concentration: 0.5 µM; baseline: control
# SMILES: CCCC(=O)Oc1ccc2[nH]c(C(=O)c3cc4ccccc4[nH]3)cc2c1
target,remaining activity
"Tyrosine-protein kinase Tec (TEC, Homo sapiens, UniProt P42680)",97.8%
"Protein kinase C zeta type (PRKCZ, Homo sapiens, UniProt Q05513)",98.3%
"Ephrin type-A receptor 6 (EPHA6, Homo sapiens, UniProt Q9UF33)",88%
"Tyrosine-protein kinase JAK1 (JAK1, Homo sapiens, UniProt P23458)",104%
"Ephrin type-A receptor 2 (EPHA2, Homo sapiens, UniProt P29317)",99%
"Calcium/calmodulin-dependent protein kinase type 1 (CAMK1, Homo sapiens, UniProt Q14012)",98.8%

# A few entries again (study 1):
Change,binding free energy change [kcal/mol]
A45R,0.85
P41H,0.346
